{"data": "Measured values pooled from the literature", "note": "Parts stem from different laboratories: compare values within a part only. Changes are numbered by the printed parent chain."}
{"data": "Study 1", "Substance": "PhoQ, residues 284 288 289 292 302 303 NLCILV", "method": "Sort-seq", "item": "YFP reporter", "sample": "E. coli", "setting": "PhoQ-PhoP variant library", "added": "10 µM Mg2+", "baseline": "high Mg2+ state", "reading": "higher = stronger signaling"}
{"target": "PhoP, residues 12 14 15 18 19 LHHYF (Escherichia coli, UniProt P23836)", "fold induction": 35.9}
{"target": "PhoP, residues 12 14 15 18 19 NFFVT (Escherichia coli, UniProt P23836)", "fold induction": 21.3}
{"target": "PhoP, residues 12 14 15 18 19 TPWTL (Escherichia coli, UniProt P23836)", "fold induction": 5.7}
{"data": "Study 2", "target": "PABPC1L2, full length, GST fusion (mouse, UniProt A0ABA7IW68)", "method": "RNAcompete", "form": "RNA", "sample": "in vitro", "concentration": "20 nM", "setting": "7-mer, probes averaged, single round", "baseline": "mean of 7-mers", "reading": "higher = stronger binding", "Target sequence (chain)": "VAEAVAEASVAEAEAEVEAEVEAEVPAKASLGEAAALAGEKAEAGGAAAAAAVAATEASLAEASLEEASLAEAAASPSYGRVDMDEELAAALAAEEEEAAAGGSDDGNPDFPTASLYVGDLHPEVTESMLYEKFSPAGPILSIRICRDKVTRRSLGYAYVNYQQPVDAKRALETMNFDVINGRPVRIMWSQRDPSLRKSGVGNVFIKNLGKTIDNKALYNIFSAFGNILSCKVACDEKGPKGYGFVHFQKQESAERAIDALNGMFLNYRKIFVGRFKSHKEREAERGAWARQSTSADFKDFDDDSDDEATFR"}
{"Sequence": "GAUGGAU", "7-mer Z-score": -0.15}
{"Sequence": "GGCAUCA", "7-mer Z-score": 0.222}
{"Sequence": "ACAUCCG", "7-mer Z-score": -0.186}
{"Sequence": "AGUGAGC", "7-mer Z-score": -0.199}
{"Sequence": "CUUUAGU", "7-mer Z-score": -0.0971}
{"Sequence": "CCAUGCA", "7-mer Z-score": -0.108}
{"Sequence": "UCUAGAU", "7-mer Z-score": -0.199}
{"Sequence": "CUAUAUA", "7-mer Z-score": -0.0953}
{"Sequence": "UACACCC", "7-mer Z-score": -0.248}
{"Sequence": "UAACGGU", "7-mer Z-score": -0.133}
{"Sequence": "CACCUUU", "7-mer Z-score": -0.289}
{"Sequence": "CUACGUC", "7-mer Z-score": -0.396}
{"Sequence": "GGCUUGU", "7-mer Z-score": -0.141}
{"Sequence": "UUAGAUA", "7-mer Z-score": -0.115}
{"Sequence": "GCAUUCG", "7-mer Z-score": -0.231}
{"Sequence": "CGAAAAU", "7-mer Z-score": 2.92}
{"Sequence": "GACGGAG", "7-mer Z-score": -0.012}
{"Sequence": "CCAAGCA", "7-mer Z-score": -0.17}
{"Sequence": "AGUCCUU", "7-mer Z-score": -0.302}
{"Sequence": "UCAAAUU", "7-mer Z-score": -0.0881}
{"Sequence": "ACAUUAC", "7-mer Z-score": 0.00979}
{"Sequence": "AAUAUUC", "7-mer Z-score": -0.171}
{"data": "Study 3", "target": "ABI1, truncated, D143A, DHFR fusion (Arabidopsis thaliana)", "method": "DHFR PCA, deep sequencing", "sample": "yeast", "setting": "methotrexate growth selection, single substitutions", "added": "(+)-ABA 710 µM", "baseline": "wild-type fitted maximum", "reading": "higher = stronger binding", "starting sequence": "PYL1, truncated, DHFR fusion (Arabidopsis thaliana); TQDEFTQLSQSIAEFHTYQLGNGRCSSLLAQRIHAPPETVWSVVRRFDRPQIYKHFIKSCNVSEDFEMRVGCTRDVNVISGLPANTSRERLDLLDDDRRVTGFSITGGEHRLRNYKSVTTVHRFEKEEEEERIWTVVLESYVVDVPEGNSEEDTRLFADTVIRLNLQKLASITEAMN; partner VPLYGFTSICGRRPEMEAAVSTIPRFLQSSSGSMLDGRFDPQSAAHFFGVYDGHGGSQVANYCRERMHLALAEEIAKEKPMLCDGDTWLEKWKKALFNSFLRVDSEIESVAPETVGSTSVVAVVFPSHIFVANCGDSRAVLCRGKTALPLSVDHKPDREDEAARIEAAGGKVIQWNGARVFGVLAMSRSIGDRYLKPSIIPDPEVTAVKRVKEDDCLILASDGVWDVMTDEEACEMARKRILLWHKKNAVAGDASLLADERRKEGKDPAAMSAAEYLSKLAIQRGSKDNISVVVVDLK"}
{"Variant": "R123W", "relative binding score": "84%"}
{"Variant": "H110M", "relative binding score": "60.6%"}
{"Variant": "W41D", "relative binding score": "-2.49%"}
{"Variant": "E131A", "relative binding score": "111%"}
{"Variant": "F66W", "relative binding score": "100%"}
{"Variant": "A35Q", "relative binding score": "70.3%"}
{"Variant": "L29R", "relative binding score": "91.5%"}
{"Variant": "R111E", "relative binding score": "66.7%"}
{"Variant": "E109Q", "relative binding score": "107%"}
{"data": "Study 4", "target": "Phosphate system positive regulatory protein PHO4, full length, GST-tagged (PHO4, Saccharomyces cerevisiae, UniProt P07270, residues 1-312)", "method": "competition protein-binding microarray", "form": "double-stranded DNA, one strand shown", "sample": "in vitro", "concentration": "2 µM", "setting": "whole 60-bp probe, lowest competitor level", "added": "Cbf1 competitor, 0.05 µM", "reading": "higher = stronger binding", "Residues (chain)": "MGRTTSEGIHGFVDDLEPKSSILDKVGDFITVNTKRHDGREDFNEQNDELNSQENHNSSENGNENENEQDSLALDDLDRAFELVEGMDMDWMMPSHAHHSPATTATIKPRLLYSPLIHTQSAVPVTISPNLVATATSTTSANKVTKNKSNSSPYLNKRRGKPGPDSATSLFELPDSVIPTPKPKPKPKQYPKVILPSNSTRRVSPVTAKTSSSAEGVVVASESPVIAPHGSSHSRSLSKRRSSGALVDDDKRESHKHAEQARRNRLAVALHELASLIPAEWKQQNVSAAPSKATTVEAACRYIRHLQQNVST"}
{"Sequence": "TTGAGCACTTGAGTATACGTGATGGAGCACACAAAGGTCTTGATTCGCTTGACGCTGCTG", "fluorescence intensity": "5190 a.u."}
{"Sequence": "ATTACTTGTTGCCATCACGATACTGGCATCCGATAGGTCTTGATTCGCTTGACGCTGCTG", "fluorescence intensity": "5580 a.u."}
{"Sequence": "ACAAGGAAGGTATTCCACCTGACGAACAAAGATTGAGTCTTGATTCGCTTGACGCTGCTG", "fluorescence intensity": "4220 a.u."}
{"Sequence": "TGCGCAACAACTTTTCACGTGGCATTATGTCTAGAAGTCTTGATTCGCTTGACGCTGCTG", "fluorescence intensity": "14600 a.u."}
{"Sequence": "GTTAAAAATTATCCTCAGGTGATGTTTTGGTAGAAGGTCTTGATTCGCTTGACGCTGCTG", "fluorescence intensity": "3830 a.u."}
{"Sequence": "CATACCCAACCTTTTCACGTGAACTAAGATATTTGTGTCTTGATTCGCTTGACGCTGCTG", "fluorescence intensity": "11900 a.u."}
{"Sequence": "TGCGCAACAACTTGACGTGTGGGTGTATGTCTAGAAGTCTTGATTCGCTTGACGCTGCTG", "fluorescence intensity": "5840 a.u."}
{"Sequence": "TTCTGGACGTATCTGCACATGTGTGTTGCTTTTGTTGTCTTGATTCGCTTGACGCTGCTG", "fluorescence intensity": "13800 a.u."}
{"Sequence": "CTAACGAAGGTTTGTTAGGTGGGTGACAAGCCAAGTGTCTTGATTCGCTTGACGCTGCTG", "fluorescence intensity": "3420 a.u."}
{"Sequence": "CATACCCAACCTTTTCACGTGGGTTAAGATATTTGTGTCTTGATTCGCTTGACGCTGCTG", "fluorescence intensity": "14500 a.u."}
{"Sequence": "CACTGAGTGAGCCGCCTCGTGCGATGCGTTAGAAAAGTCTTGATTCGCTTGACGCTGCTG", "fluorescence intensity": "13000 a.u."}
{"Sequence": "AATCCCTTATCCCGTCACGTGAATTAAACTTCGGGTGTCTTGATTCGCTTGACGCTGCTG", "fluorescence intensity": "13200 a.u."}
{"Sequence": "TCGGTCCCCTCATAAAATTATATATAAATGGGTTAGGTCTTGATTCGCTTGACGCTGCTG", "fluorescence intensity": "2790 a.u."}
{"Sequence": "AAAGCGGTAATTTGTCACGGAACTTCACATATCTATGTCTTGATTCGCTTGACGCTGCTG", "fluorescence intensity": "3670 a.u."}
{"note": "Repeated from above (study 2):"}
{"Sequence": "AGUGAGC", "7-mer Z-score": -0.199}
{"Sequence": "UUAGAUA", "7-mer Z-score": -0.115}
{"Sequence": "CUAUAUA", "7-mer Z-score": -0.0953}
